Literature values, collected from citations in different studies.
Compare with care: the assays were run in different laboratories. ± marks the error that the study gave.
Chain of UniProt Q96SB4 (whole entry, looked up): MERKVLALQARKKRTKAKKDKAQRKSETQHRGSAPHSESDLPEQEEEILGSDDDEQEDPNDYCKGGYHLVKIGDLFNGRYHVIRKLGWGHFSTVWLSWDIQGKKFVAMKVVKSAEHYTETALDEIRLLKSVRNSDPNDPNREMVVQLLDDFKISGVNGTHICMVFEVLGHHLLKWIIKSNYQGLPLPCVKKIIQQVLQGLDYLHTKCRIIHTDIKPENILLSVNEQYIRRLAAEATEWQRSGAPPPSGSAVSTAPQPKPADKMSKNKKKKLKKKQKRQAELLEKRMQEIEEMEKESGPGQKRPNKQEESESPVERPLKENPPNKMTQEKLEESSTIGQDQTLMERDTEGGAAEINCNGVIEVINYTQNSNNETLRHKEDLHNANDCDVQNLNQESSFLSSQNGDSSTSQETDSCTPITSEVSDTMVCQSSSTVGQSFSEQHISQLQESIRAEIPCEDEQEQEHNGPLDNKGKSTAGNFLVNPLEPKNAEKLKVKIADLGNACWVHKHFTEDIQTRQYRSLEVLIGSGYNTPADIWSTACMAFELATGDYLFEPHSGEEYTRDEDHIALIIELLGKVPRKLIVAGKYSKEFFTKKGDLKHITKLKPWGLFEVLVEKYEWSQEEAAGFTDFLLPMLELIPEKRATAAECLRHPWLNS

SMILES = CCN(CC)CCCCNc1ncc2cc(-c3cc(OC)cc(OC)c3)c(NC(=O)NC(C)(C)C)nc2n1; tested on = c-Met; test = inhibitor; measurement = IC50; value = > 1 µM
SMILES = CCC(CC)N1CCN(c2nc3c(c(Nc4ccc(C(F)(F)F)cc4)n2)CCN(c2ncccc2C(F)(F)F)CC3)CC1; tested on = TRPV1; test = calcium flux, antagonist; test system = HEK293; conditions = with: capsaicin; measurement = IC50; value = 0.041 µM
SMILES = NC(=O)N1c2ccccc2C=Cc2ccccc21; tested on = sodium channel; test system = rat brain synaptosomes; measurement = IC50; value = 131 µM
SMILES = CC1(C)S[C@@H]2[C@H](NC(=O)[C@H](N)c3ccccc3)C(=O)N2[C@H]1C(=O)O; tested on = Enterobacter cloacae; test system = clinical isolate RKI-No_287/13; measurement = MIC; value = > 16 mg/L
SMILES = CC(=O)N1CCc2c(c(N3CCCc4cc(-c5cnn(C)c5)c(C(F)F)cc43)nn2C2CCOCC2)C1; tested on = PI3Kγ; measurement = IC50; value = 0.158 µM
SMILES = Cn1c2c(c3cc(O)ccc31)C(CNC(=O)c1ccc(OC(F)(F)F)cc1)CCC2 (stereo not drawn); tested on = TRPV1; test = calcium flux, antagonist; test system = HEK293; conditions = with: capsaicin; measurement = IC50; value = 0.023 µM
SMILES = NC(=O)C(NC1CCC(c2c[nH]c3ccccc23)CC1)C1CCN(C(=O)Nc2ccc(OC(F)(F)F)cc2)CC1 (stereo not drawn); tested on = CCR2; conditions = 3D-QSAR training set; measurement = IC50; value = 0.264 µM
SMILES = CN(C)CCCC1(c2ccc(F)cc2)OCc2cc(C#N)ccc21 (stereo not drawn); tested on = sigma-1 receptor; conditions = literature value; measurement = IC50; value = 0.3 µM
SMILES = COc1ccc(-c2noc(CC(=O)O)c2-c2ccc(OC)cc2)cc1; tested on = NR4A3 (NOR-1); test = inverse agonist, cellular; measurement = IC50; value = 33 ± 5 µM
SMILES = O=C(NCc1ccc(Cl)cc1)Nc1cccc2cnccc12; tested on = TRPV1; test = calcium flux, antagonist; test system = HEK293; conditions = with: capsaicin; measurement = IC50; value = 0.006 µM
SMILES = Nc1ncnc2c1ncn2[C@@H]1O[C@H](COP(=O)(O)CP(=O)(O)OP(=O)(O)O)[C@@H](O)[C@H]1O; tested on = P2X purinergic receptor; test = binding; conditions = historical reference value; measurement = IC50; value = 0.082 µM
SMILES = COc1cc2ncnc(Nc3ccc(Oc4ccccc4)cc3)c2cc1OC; tested on = Src kinase; measurement = IC50; value = 0.044 µM
SMILES = O=C(Nc1cccc(C(F)(F)F)c1)Nc1cccc2cnccc12; tested on = TRPV1; test = calcium flux, antagonist; test system = HEK293; conditions = with: capsaicin; measurement = IC50; value = 0.032 µM
SMILES = COc1ccc(-c2ccc3ncc4c(c3c2)n(-c2ccc(N3CCNCC3)c(C(F)(F)F)c2)c(=O)n4C)cn1; tested on = mTOR; measurement = IC50; value = 0.02 µM
SMILES = Fc1c(-c2cccc3cccc(F)c23)ncc2c(N3C[C@H]4CC[C@@H](C3)N4)nc(OC[C@@]34CCCN3C[C@H](F)C4)nc12; tested on = KRAS; measurement = IC50; value = 0.012 µM
SMILES = CC[C@]1(O)C[C@H]2CN(CCc3c([nH]c4ccccc34)[C@@](C(=O)OC)(c3cc4c(cc3OC)N(C=O)[C@H]3[C@@](O)(C(=O)OC)[C@H](OC(C)=O)[C@]5(CC)C=CCN6CC[C@]43[C@@H]65)C2)C1; tested on = tubulin; test = tubulin binding; conditions = cell-free; measurement = IC50; value = 32 µM
SMILES = O=C(Nc1cc(C(F)(F)F)cc(C(F)(F)F)c1)Nc1cccc2cnccc12; tested on = TRPV1; test = calcium flux, antagonist; test system = HEK293; conditions = with: capsaicin; measurement = IC50; value = 0.032 µM
SMILES = COC(=O)/C=C/c1ccc(O)c(O)c1; tested on = xanthine oxidase; test = inhibitor; measurement = IC50; value = 143 ± 13 µM
SMILES = COc1ccc2c(c1)CCC(NC(=O)Nc1cccc3cnccc13)C2Cc1ccc(Br)cc1 (stereo not drawn); tested on = TRPV1; test = calcium flux, antagonist; test system = HEK293; conditions = with: capsaicin; measurement = IC50; value = 0.022 µM
SMILES = NCCCS(=O)(=O)O; tested on = taurine transporter TauT; test = transport function, inhibitor; conditions = literature value; measurement = IC50; value = 3400 µM
SMILES = O=C(O)c1cc(N2N=C(C(F)(F)F)/C(=C/c3ccc(-c4ccccc4)o3)C2=O)ccc1Cl; tested on = MAO-B; test = inhibitor; measurement = IC50; value = 30.6 µM
SMILES = O=C1C[C@@H](c2ccc(O)cc2)Oc2cc(O)cc(O)c21; tested on = MAO-B (rat); test = inhibitor; measurement = IC50; value = 288 µM
SMILES = CC(C)(C)CCc1nc(C(F)(F)F)ccc1CNC(=O)Nc1cccc2[nH]ncc12; tested on = TRPV1; test = calcium flux, antagonist; test system = HEK293; conditions = with: capsaicin; measurement = IC50; value = 0.005 µM
SMILES = CN1CCC(c2cc(-c3ccncc3)c(-c3ccc(F)cc3)[nH]2)CC1; tested on = Plasmodium falciparum PKG; test = kinase activity, inhibitor; conditions = with: peptide substrate; measurement = IC50; value = 0.00853 µM
SMILES = Nc1cc(C(F)(F)F)c(-c2nc(N3CCOCC3)nc(N3CCOCC3)n2)cn1; tested on = SRPK1 (Homo sapiens, UniProt Q96SB4); test = enzyme activity; conditions = 10 µM; scale = relative to: untreated; measurement = remaining activity; value = 78%
SMILES = CC(C)(O/N=C(\C(=O)N[C@@H]1C(=O)N2C(C(=O)[O-])=C(C[n+]3ccccc3)CS[C@H]12)c1csc(N)n1)C(=O)O; tested on = Escherichia coli; test system = clinical isolate RKI-No_330/16; measurement = MIC; value = ≤ 2 mg/L
SMILES = C=C[C@](C)(O)CC[C@H]1C(=C)CC[C@H]2C(C)(C)CCC[C@]12C; tested on = carbonic anhydrase IX; measurement = IC50; value = 0.16 ± 0.015 µM

Repeated from above:
SMILES = C=C[C@](C)(O)CC[C@H]1C(=C)CC[C@H]2C(C)(C)CCC[C@]12C; tested on = carbonic anhydrase IX; measurement = IC50; value = 0.16 ± 0.015 µM
SMILES = O=C(NCc1ccc(Cl)cc1)Nc1cccc2cnccc12; tested on = TRPV1; test = calcium flux, antagonist; test system = HEK293; conditions = with: capsaicin; measurement = IC50; value = 0.006 µM
